# Measurements of several laboratories.
# Lines come from different studies, so protocols differ. No end group written: not given here.
# B1: RTT103 1-131 R108N (Saccharomyces cerevisiae, UniProt Q05543); chain MPFSSEQFTTKLNTLEDSQESISSASKWLLLQYRDAPKVAEMWKEYMLRPSVNTRRKLLGLYLMNHVVQQAKGQKIIQFQDSFGKVAAEVLGRINQEFPRDLKKKLSNVVNILKERNIFSKQVVNDIERSL
# B2: MSH4 S2A/S4A/S7A/S41A/T43A/S46A (Saccharomyces cerevisiae, UniProt P40965); sequence looked up; chain MAEANLASFISTNYFNLRSAANSSNSISKPSTKKSIRNQKAPANIASWALKKKTLQIAETTWENNEKDSTHSHYLMTGSMASRTATSLSRYSTNASLLGPSIDCVLCCIYEVPRDISTRIGLCIINCNTGQMYLSDFMDSQIYIRVVHKLQIYQPTEILIPSSSLAPTVSKLATMIKFNVAETVKIEEGSRKCFNSQDGLAAITKYLMDDTKKDLKIEEIIDKTFALCAASAAISYMEEIISKSSRNLNAFRKLRIQFEGTENTMLIDSKTVRGLELVENKLDKNGISLWKFLDTTSTKMGQRSLRNSILQPLTDRGSIEMRLEALEELKANDDLLQKLRLEMKSLPDLDKLFSRLLCINHSAIKPDQRINYVLLLKETLQSVKSLKDALNDQLIQSRLISETKKIFNNDAIMEIEKLINSCINEDCVWASSAIQLLNQRSYAVKSDSNGLLDVSRQIYKEVKEEFFREVEDLTAKNKINLDHNYDSARGFYLRIKRQEFTDDVATLPDVFISRTIKKNYIECTTLNIIKKNARLKEVMEEILLLSEETVDELLDKIATHISELFMIAEAVAILDLVCSFTYNLKENNYTIPIFTNNLLIRDSRHPLLEKVLKNFVPNTISSTKHSSSLQIITGCNMSGKSVYLKQVALICIMAQMGSGIPALYGSFPVFKRLHARVCNDSMELTSSNFGFEMKEMAYFLDDINTETLLILDELGRGSSIADGFCVSLAVTEHLLRTEATVFLSTHFQDIPKIMSKKPAVSHLHMDAVLLNDNSVKMNYQLTQKSVAIENSGIRVVKKIFNPDIIAEAYNIHSLLKIAKARTENEDSNGVVDQKTINQMKRIHNLVAILKECAGNEKEPLTLGKLKEINSDFIENFEE
# B3: MICA extracellular domain 24-299 (Homo sapiens, UniProt Q29983); sequence looked up; chain EPHSLRYNLTVLSWDGSVQSGFLTEVHLDGQPFLRCDRQKCRAKPQGQWAEDVLGNKTWDRETRDLTGNGKDLRMTLAHIKDQKEGLHSLQEIRVCEIHEDNSTRSSQHFYYDGELFLSQNLETKEWTMPQSSRAQTLAMNVRNFLKEDAMKTKTHYHAMHADCLQELRRYLKSGVVLRRTVPPMVNVTRSEASEGNITVTCRASGFYPWNITLSWRQDGVSLSHDTQQWGDVLPDGNGTYQTWVATRICQGEEQRFTCYMEHSGNHSTHPVPSGK
# B4: rof 1-84 E17A (Escherichia coli, UniProt P0AFW8); chain MNDTYQPINCDDYDNLALACQHHLMLTLELKDGEKLQAKASDLVSRKNVEYLVVEAAGETRELRLDKITSFSHPEIGTVVVSES
Molecule,target or system,test,system,setting,how to read,measurement,result
GBA1 fragment E326K (Homo sapiens),"SCARB2 lumenal domain 36-430 (Homo sapiens, UniProt Q14108)",SPR,,"pH 7.5, 25 °C, bivalent model, first site","relative to: wild-type GCase with LIMP2, higher = weaker binding",Kd1 fold change,2 fold
"UGT1A9 (Homo sapiens, UniProt O60656)",O=C(/C=C/c1ccccc1)c1ccccc1O,steady-state kinetics,,"pH 7.4, 37 °C",,Km,0.77 µM
VPLPAGGGTVLTKMYPRGNHWAVGHLM-NH2 (GRP mature (UniProt P07492); C-terminal amide),"GRPR E175A (Homo sapiens, UniProt P30550)",calcium mobilization,"peptide, CHO",,"relative to: wild-type receptor, higher = greater loss",signalling decrease,14 fold
B1 (RTT103 1-131 R108N),"RPO21 CTD, two heptad repeats, phosphoserine at both Ser2",ChIP,,"PMA1 gene, in cells","relative to: wild type, higher = greater reduction",reduction in recruitment,8 fold
"PRKCB (Homo sapiens, UniProt P05771-2)","AKAP5 1-81 (Homo sapiens, UniProt P24588)","CKAR response after Oxo-M, FRET",CHO,added: BIS I,,half-time of inhibition,9.2 min
B2,"MSH5 (Saccharomyces cerevisiae, UniProt Q12175)",co-IP,,,"relative to: wild-type cells, higher = lower efficiency",relative complex formation,2.6 fold
B3,"KLRK1 (Homo sapiens, UniProt P26718)",micropipette adhesion frequency,,,"relative to: ULBP3 at zero force, higher = longer lifetime",bond lifetime ratio,1.45 fold
B4 (rof 1-84 E17A),"rho 1-419 (Escherichia coli, UniProt P0AG30)","rho termination, inhibitor",,,lower = more inhibition,terminated transcripts,25%
CD8A fragment (Homo sapiens) (sequence not shown),CEACAM5 del42-46 (Homo sapiens),SPR,,,,koff,0.0015 s⁻¹
"TPDYLMQLMNDKKAMSSLPNFSGIFNHLERLLDEEISRVRKDMYNDTLNGSTEK (Qki 14-67 C35S/L27A (Mus musculus, UniProt Q9QYS9))",itself,CD thermal melting,,50 µM,,melting temperature,67 °C
"dnaJ (Escherichia coli, UniProt P08622)","dnaK (Escherichia coli, UniProt P0A6Y8)","ATPase activity, activator, single turnover ATPase assay",,,"relative to: intrinsic activity, higher = more stimulation",ATPase stimulation,60 fold
KRRPAKAWSGRRTRLCCHRVPSPNSTNLKGHHVRLCKPCKLEPEPRLWVVPGALPQV (C10orf99 25-81 (Homo sapiens)),"GPR15 (Homo sapiens, UniProt P49685)","inhibition of forskolin-stimulated cAMP, agonist, HTRF",HEK293A-GPR15,,,pEC50,7.96
"CXCL8 (Homo sapiens, UniProt P10145)","CXCR1 (Homo sapiens, UniProt P25024)",label-free dynamic mass redistribution,HEK293T,,higher = stronger response,maximal response,69.7 DMR

# Some of these lines once more:
Molecule,target or system,test,system,setting,how to read,measurement,result
VPLPAGGGTVLTKMYPRGNHWAVGHLM-NH2 (GRP mature (UniProt P07492); C-terminal amide),"GRPR E175A (Homo sapiens, UniProt P30550)",calcium mobilization,"peptide, CHO",,"relative to: wild-type receptor, higher = greater loss",signalling decrease,14 fold
